Measured values from different studies.
Lines come from different studies, so protocols differ. Values joined by “and” are separate records of one study, mostly repeats; a detail may differ. ± marks the error that the study gave.
E3 ubiquitin-protein ligase NEDD4: E3 ubiquitin-protein ligase NEDD4 (Homo sapiens, UniProt P46934)
APP Aβ1-40: Amyloid-beta precursor protein, Aβ1-40 (APP, Homo sapiens, UniProt P05067)
MAPK8: Mitogen-activated protein kinase 8 (MAPK8, Homo sapiens, UniProt P45983)
Lysophospholipase-like protein 1: Lysophospholipase-like protein 1 (Mus musculus, UniProt Q3UFF7)
MIPEP: Mitochondrial intermediate peptidase (MIPEP, Homo sapiens, UniProt Q99797)
FAAH: Fatty-acid amide hydrolase 1 (FAAH, Homo sapiens, UniProt O00519)
GRM4: Metabotropic glutamate receptor 4 (GRM4, Homo sapiens, UniProt Q14833)
RPA1 N-terminal domain: Replication protein A 70 kDa DNA-binding subunit, N-terminal domain (RPA1, Homo sapiens, UniProt P27694)
Grm2: Metabotropic glutamate receptor 2 (Grm2, Rattus norvegicus, UniProt P31421)

The chains behind the UniProt entries cited, without tags or fusion partners. Residues count along the entry.
UniProt P46934, whole entry, looked up: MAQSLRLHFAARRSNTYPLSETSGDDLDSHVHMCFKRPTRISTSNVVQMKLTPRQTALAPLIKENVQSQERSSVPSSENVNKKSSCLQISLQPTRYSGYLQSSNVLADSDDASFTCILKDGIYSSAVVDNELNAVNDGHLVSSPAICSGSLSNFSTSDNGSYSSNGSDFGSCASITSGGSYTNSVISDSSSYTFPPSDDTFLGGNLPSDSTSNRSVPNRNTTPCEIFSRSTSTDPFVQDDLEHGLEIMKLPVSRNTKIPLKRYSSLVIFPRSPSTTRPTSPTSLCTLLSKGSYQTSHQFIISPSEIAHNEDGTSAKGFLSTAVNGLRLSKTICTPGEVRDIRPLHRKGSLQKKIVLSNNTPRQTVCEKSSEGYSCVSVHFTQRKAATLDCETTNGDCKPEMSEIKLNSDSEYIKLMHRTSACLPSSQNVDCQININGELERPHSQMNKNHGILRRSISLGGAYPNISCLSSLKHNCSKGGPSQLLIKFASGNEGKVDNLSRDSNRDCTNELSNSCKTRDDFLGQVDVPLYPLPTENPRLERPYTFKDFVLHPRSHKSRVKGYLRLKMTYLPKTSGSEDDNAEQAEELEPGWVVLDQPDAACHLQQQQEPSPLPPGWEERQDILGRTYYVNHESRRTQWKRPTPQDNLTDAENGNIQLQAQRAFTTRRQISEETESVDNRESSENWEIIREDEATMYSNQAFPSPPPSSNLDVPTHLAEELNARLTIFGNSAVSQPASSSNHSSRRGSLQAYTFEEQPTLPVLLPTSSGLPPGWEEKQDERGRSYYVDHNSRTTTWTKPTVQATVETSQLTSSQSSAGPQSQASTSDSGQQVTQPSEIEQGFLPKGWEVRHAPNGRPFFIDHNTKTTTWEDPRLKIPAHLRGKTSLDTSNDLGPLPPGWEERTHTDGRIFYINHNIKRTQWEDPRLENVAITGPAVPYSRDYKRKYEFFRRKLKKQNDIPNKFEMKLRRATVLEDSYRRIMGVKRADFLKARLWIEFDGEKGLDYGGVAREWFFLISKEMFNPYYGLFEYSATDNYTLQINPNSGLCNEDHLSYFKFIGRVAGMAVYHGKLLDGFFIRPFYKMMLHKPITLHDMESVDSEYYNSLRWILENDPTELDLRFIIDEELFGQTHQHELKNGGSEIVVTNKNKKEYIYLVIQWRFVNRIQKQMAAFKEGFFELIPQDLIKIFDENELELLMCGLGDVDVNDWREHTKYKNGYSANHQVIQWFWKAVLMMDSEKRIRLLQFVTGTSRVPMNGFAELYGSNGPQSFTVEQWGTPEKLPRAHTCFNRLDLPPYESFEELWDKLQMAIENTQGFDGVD
UniProt P05067, whole entry, looked up: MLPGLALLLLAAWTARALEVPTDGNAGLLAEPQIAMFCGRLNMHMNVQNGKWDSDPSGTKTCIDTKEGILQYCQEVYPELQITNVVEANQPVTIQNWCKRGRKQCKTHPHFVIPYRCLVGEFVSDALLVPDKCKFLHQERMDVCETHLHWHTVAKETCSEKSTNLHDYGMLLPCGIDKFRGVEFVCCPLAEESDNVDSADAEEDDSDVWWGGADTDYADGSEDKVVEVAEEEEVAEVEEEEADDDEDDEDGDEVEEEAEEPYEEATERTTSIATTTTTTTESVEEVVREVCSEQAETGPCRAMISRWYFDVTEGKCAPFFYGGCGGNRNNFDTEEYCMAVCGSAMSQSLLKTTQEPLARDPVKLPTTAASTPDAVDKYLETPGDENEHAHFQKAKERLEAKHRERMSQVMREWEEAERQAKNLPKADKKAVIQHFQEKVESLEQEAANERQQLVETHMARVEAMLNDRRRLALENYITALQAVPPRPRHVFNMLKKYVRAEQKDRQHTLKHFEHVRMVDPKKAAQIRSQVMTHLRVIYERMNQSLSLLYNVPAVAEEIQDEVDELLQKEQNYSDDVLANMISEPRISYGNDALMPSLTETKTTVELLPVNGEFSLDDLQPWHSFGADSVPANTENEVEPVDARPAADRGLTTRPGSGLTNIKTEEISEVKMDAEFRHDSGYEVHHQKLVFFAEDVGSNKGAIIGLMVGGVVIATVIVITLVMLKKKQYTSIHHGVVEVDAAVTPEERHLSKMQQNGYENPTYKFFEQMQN
UniProt P05067, 672-713 limits assumed: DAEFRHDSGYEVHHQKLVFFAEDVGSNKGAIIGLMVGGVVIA
UniProt Q3UFF7, whole entry: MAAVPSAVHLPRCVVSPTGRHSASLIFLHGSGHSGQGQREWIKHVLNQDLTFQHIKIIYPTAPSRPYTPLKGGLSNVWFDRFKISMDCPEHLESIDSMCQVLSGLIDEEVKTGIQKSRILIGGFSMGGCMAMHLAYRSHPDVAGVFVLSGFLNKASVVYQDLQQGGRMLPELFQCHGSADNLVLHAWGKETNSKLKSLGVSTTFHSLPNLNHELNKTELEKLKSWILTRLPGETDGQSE
UniProt Q99797, 36-713 limits assumed: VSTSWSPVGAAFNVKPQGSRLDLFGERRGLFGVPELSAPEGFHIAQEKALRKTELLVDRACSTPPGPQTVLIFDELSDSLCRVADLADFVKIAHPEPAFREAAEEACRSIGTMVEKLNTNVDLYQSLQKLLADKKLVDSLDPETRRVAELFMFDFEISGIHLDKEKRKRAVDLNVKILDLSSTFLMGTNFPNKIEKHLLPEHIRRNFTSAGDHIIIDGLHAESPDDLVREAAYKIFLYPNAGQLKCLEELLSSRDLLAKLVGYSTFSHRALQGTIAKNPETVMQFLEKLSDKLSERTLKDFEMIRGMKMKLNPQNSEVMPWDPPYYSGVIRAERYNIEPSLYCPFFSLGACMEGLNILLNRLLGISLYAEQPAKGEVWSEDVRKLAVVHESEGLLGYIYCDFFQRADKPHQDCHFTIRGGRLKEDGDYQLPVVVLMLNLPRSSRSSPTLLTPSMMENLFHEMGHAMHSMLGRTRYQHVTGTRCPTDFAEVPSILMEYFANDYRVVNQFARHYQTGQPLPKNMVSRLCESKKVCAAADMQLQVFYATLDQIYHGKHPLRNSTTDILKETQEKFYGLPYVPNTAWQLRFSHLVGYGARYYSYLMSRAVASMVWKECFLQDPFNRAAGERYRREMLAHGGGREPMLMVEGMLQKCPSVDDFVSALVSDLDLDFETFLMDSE
UniProt O00519, whole entry: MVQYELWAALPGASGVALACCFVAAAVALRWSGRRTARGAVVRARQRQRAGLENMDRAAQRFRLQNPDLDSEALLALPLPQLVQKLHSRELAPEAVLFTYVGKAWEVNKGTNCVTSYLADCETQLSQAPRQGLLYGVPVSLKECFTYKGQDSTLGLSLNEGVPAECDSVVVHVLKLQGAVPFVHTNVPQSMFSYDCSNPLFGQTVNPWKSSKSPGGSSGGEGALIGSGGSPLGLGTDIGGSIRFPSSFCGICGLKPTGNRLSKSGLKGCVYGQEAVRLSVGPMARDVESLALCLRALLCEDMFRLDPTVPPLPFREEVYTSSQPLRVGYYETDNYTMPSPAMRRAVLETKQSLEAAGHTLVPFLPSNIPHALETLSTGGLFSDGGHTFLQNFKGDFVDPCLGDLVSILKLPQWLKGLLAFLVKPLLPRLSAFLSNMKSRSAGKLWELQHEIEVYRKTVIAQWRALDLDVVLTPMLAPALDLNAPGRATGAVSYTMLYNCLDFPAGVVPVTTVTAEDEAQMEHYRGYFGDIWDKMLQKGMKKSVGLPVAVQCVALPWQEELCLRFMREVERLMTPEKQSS
UniProt Q14833, 33-912 limits assumed: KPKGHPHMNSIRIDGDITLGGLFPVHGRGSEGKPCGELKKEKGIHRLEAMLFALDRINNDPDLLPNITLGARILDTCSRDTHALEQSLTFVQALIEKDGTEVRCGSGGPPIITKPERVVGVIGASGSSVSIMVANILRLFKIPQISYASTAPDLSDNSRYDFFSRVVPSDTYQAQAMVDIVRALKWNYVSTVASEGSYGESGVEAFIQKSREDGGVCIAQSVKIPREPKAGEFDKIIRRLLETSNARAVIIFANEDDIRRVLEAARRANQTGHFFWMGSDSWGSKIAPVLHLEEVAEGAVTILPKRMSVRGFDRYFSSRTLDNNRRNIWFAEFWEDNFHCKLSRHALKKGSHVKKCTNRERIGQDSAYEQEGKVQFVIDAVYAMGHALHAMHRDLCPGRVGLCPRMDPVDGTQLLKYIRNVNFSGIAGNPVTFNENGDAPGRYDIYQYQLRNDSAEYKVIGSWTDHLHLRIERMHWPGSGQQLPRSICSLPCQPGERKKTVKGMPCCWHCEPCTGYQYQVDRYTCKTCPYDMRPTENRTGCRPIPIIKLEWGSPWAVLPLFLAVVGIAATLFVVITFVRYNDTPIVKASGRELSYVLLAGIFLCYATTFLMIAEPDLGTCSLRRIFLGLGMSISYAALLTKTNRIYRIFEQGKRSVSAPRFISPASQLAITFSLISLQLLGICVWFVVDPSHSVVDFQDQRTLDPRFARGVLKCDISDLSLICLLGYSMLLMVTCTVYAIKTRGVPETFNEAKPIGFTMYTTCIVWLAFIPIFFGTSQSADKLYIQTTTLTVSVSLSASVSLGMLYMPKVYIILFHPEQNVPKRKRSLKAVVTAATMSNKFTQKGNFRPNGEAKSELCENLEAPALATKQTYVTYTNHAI
UniProt Q8IUN9, whole entry, looked up: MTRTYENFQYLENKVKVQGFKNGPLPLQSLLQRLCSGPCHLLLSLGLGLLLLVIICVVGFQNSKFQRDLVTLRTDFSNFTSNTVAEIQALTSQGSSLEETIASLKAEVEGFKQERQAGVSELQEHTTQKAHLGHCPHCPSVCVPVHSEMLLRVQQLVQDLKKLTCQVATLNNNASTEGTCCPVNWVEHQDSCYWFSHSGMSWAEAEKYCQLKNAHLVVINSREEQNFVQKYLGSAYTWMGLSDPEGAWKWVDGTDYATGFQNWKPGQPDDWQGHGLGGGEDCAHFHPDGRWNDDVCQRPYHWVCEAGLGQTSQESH
UniProt O89017, 18-435 limits assumed: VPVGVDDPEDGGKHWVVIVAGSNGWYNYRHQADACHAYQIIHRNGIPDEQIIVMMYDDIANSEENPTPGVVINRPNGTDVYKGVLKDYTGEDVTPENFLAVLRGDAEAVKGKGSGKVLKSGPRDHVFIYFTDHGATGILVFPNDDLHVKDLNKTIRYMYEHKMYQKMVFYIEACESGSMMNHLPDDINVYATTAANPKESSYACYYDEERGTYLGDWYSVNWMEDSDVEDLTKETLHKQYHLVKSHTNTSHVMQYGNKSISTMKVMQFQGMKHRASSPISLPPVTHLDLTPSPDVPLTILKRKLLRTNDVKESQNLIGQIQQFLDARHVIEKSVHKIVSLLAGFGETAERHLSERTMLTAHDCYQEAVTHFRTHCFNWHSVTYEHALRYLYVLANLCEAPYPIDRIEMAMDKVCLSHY
UniProt O75874, whole entry R132H: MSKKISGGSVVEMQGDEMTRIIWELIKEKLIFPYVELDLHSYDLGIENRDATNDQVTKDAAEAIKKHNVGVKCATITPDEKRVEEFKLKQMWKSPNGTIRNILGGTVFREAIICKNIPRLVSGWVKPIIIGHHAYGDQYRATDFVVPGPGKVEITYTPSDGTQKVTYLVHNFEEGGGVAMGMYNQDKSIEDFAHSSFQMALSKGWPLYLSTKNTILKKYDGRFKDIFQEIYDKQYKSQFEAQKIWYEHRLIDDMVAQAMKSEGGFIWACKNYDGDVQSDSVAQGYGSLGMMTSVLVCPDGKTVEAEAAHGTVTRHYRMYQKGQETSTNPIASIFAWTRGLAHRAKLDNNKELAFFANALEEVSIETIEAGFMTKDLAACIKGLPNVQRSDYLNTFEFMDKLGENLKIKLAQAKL
UniProt P43220, whole entry, looked up: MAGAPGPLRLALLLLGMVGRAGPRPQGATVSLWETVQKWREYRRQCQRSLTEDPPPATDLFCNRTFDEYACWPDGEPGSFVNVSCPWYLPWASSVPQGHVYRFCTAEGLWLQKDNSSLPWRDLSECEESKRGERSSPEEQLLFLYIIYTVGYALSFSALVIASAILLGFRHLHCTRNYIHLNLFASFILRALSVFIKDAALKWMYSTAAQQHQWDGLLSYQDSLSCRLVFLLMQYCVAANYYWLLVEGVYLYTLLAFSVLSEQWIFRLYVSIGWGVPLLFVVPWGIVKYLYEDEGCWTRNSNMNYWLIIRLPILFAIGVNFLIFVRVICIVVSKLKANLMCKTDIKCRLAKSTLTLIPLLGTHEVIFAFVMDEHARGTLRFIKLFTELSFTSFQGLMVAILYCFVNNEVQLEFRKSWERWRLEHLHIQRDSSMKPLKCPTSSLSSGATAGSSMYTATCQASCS
UniProt Q9UDY8, 329-566 limits assumed: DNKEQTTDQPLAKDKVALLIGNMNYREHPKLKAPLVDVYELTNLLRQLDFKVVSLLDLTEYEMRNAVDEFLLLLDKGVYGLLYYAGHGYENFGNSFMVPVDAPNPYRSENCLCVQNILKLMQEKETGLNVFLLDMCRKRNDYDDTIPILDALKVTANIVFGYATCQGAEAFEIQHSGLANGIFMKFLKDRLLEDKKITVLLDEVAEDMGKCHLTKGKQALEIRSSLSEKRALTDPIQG
UniProt Q5VWZ2, whole entry: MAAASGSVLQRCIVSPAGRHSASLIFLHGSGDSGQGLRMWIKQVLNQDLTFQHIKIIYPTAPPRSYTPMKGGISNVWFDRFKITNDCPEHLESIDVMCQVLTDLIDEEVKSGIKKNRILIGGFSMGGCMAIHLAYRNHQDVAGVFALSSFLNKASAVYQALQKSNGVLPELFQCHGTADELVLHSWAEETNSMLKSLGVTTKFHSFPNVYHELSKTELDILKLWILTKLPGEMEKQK

CC(=O)N[C@H]1[C@@H](O[C@H](C)[C@H](N)C(=O)O)O[C@H](CO)[C@H](O)[C@@H]1O
binding stoichiometry (CLEC10A, carbohydrate recognition domain (Homo sapiens, UniProt Q8IUN9); ITC; concentration not given, 293 K): 1.3 ± 0.2

CCOC(=O)/C=C/CNCCCCN1c2ccccc2CCc2ccc(Cl)cc21
E2 to E3 transthioesterification (E3 ubiquitin-protein ligase NEDD4; single turnover transthioesterification, inhibitor; 160 µM, 1 h preincubation): no effect

COc1ccc2[nH]cc(/C=C/c3ccc(NS(C)(=O)=O)cc3)c2c1
inhibition (APP Aβ1-40; Aβ40 aggregation, thioflavin T fluorescence; 25 µM): 42%

Cc1cccc(Nc2ncnc3onc(-c4ccc(F)cc4)c23)c1
iodide influx rate (CFTR (Homo sapiens, UniProt P13569, del508-508); FRT expressing ΔF508-CFTR; baseline: DMSO): 113 µM/s

COc1ccc(C(=O)C2=C(O)C(=O)N(CCN(C)C)C2c2cc(OC)ccc2OC)cc1 (stereo not shown)
antagonist activity (FPR1 (Homo sapiens, UniProt P21462); fMLF-induced calcium mobilization, antagonist; HL-60 expressing FPR1; concentration not given): inactive

Cc1cc(NC(=O)c2cccc(NC(=O)C3=CC(C)(C)CCC3=O)c2)ccc1Nc1nccc(-c2cccnc2)n1
remaining activity (MAPK8; kinase activity, inhibitor; 0.006774 µM, unit not given, with: 10 mM GSH; baseline: DMSO): 0.962

Nc1nc(SCc2ccc(Cl)cc2)nn1S(=O)(=O)c1nc2ccccc2s1
activation (Lysophospholipase-like protein 1; activator, gel-based ABPP, FP-rhodamine; HEK293 overexpressing Lysophospholipase-like protein 1; 10 µM): 5%

CC(=O)NCCCC[C@H](NC(C)=O)C(=O)Nc1ccc2c(C)cc(=O)oc2c1
kcat (HDAC6 (Homo sapiens, UniProt Q9UBN7); deacetylation, substrate; 25 °C, with: 10 to 50 nM enzyme): 0.27 ± 0.04 s⁻¹

CC(C)C[C@H](NC(=O)[C@@H]1CCCN1C(=O)[C@H](CCC(N)=O)NC(=O)c1ccccc1N)C(=O)N[C@@H](C)C(=O)N[C@@H](CC(N)=O)C(=O)N[C@@H](CCCCN)C(=O)N[C@H](C(=O)N[C@@H](CCC(N)=O)C(=O)NCCNc1ccc([N+](=O)[O-])cc1[N+](=O)[O-])C(C)C
kcat (MIPEP; substrate, FRET peptide hydrolysis): 0.057 s⁻¹

CCOC(=O)/C=C/CNCCCN1c2ccccc2CCc2ccccc21
ubiquitination TR-FRET signal AUC (E3 ubiquitin-protein ligase NEDD4; inhibitor, Ub-TR-FRET; 33.33 µM, 1 h preincubation, HECT domain, with: ATP 2 mM; higher = more ubiquitination): 55400 a.u. and 44300 a.u. and 44000 a.u.

CCOC(=O)C1OC1C(=O)N(CC(N)=O)NC(=O)C1CCCN1C(=O)C1(NC(C)=O)CC1 (stereo not shown)
kobs/[I] (Legumain (Mus musculus, UniProt O89017); inhibitor; pH 5.8, with: Cbz-Ala-Ala-Asn-AMC 10 µM): 46500 M⁻¹ s⁻¹

C[C@H](Nc1nc(N[C@H](C)C2CC2)nc(-c2cccc(C(F)(F)F)n2)n1)C1CC1
maximal inhibition (Isocitrate dehydrogenase [NADP] cytoplasmic, homodimer (IDH1, Homo sapiens, UniProt O75874, R132H); enzyme activity, inhibitor, diaphorase/resazurin coupled): 89%

CCC(C)(N)c1cn(CC(C)(C)c2c[nH]c3ccccc23)nn1 (stereo not shown)
Emax (GLP1R (Homo sapiens, UniProt P43220); cAMP accumulation, positive allosteric modulator, HTRF; 0.6 µM, crude reaction product, with: GLP-1(9-36) at EC20; baseline: BETP): 91%

C/C=C/Cn1c(Cc2cc(OC)c(OC)c(OC)c2)nc2c(N)ncnc21
TΔS (Heat shock protein HSP 90-alpha, N-terminal domain (HSP90AA1, Homo sapiens, UniProt P07900, S52A); isothermal titration calorimetry; 298 K, N-terminal domain S52A): -4.16 ± 0.19 kcal/mol

CCOC(=O)/C=C/CNCCCCCN1c2ccccc2CCc2ccc(Cl)cc21
ubiquitination TR-FRET signal AUC (E3 ubiquitin-protein ligase NEDD4; inhibitor, Ub-TR-FRET; 1.235 µM, 1 h preincubation, HECT domain, with: ATP 2 mM; higher = more ubiquitination): 68900 a.u. and 70700 a.u. and 67400 a.u. and 67200 a.u. and 69600 a.u. and 68000 a.u.

CC(=O)Nc1ncc(CN2CC[C@H](Oc3cccc(F)n3)C[C@@H]2C)s1 [isotope labelled]
binding (Protein O-GlcNAcase (Macaca mulatta, UniProt F6QIP2); autoradiography; rhesus monkey cerebellum sections; 5 nM, radiolabelled compound): 4.1 nCi/mg

CC(=O)N1CCN(c2ccc(Nc3ncc4c(n3)N(C)C(=O)N(c3cc(NC(=O)c5ccc(CN6CCC(N(C)C)C6)c(C(F)(F)F)c5)ccc3C)C4)cn2)CC1 (stereo not shown)
GI50 (FGFR4/Transcription factor ETV6 (Homo sapiens, UniProt P22455+P41212); cell proliferation; Ba/F3 TEL-FGFR4; 72 h): 6 nM

COCCOCCOCCOC(=O)C(C#N)=Cc1ccc(N(C)C)cc1OC
emission maximum (Amyloid-beta precursor protein, aggregated Aβ42 (APP, Homo sapiens, UniProt P05067); fluorescence after Aβ binding, fluorescence spectroscopy; PBS; 4 µM, with: aggregated Aβ(1-42) 5 µM): 469 nm

O=C(OC(C(F)(F)F)C(F)(F)F)N1Cc2ccc(OCC3CC3)cc2C1
activity (FAAH; enzyme activity, inhibitor, fluorescence AAMCA substrate; 1 µM): inactive

COC(=O)[C@@]1(C)C=C(C(=O)Nc2cccc(C(=O)NC34CC(Nc5nccc(-c6cccnc6)n5)(C3)C4)c2)C(=O)CC1
remaining activity (MAPK8; kinase activity, inhibitor; 0.02032 µM, with: 10 mM GSH): 0.542 fraction of control

CCOC(=O)/C=C/CNCCCN1c2ccccc2CCc2ccc([N+](=O)[O-])cc21
ubiquitination TR-FRET signal AUC (E3 ubiquitin-protein ligase NEDD4; inhibitor, Ub-TR-FRET; 0.04572 µM, 1 h preincubation, HECT domain, with: ATP 2 mM; higher = more ubiquitination): 145000 a.u. and 148000 a.u. and 150000 a.u.

O=C(NC1CCCCC1)C12CC1/C(=N\O)c1ccccc1O2 (stereo not shown)
response (GRM4; positive allosteric modulator, calcium mobilization; CHO expressing Gqi5; concentration not given, with: glutamate EC20; baseline: glutamate 1 mM): 124 ± 1.6%

Cc1ccc(C(=O)Nc2ccc(Br)cc2C(=O)O)cc1S(=O)(=O)Nc1ccc(Br)cc1
ligand efficiency (RPA1 N-terminal domain; binding, fluorescence polarisation competition; with: FITC-ATRIP probe): 0.21

CN(c1cccnc1)c1ccc2c(c1)c(=O)c(C(N)=O)cn2-c1ccc(F)cc1
response (Grm2; calcium mobilization, negative allosteric modulator; 30 µM, with: glutamate 100 µM; baseline: glutamate maximum): -0.65 ± 1.98%

O=C(OC(C(F)(F)F)C(F)(F)F)N1CC[C@H](OC(c2ccc(F)cc2)c2ccc(F)cc2)C1
activity (FAAH; enzyme activity, inhibitor, fluorescence AAMCA substrate; 1 µM): inactive

CC(=O)N[C@@H](CC(C)C)C(=O)N[C@@H](CCCNC(=N)N)C(=O)N[C@@H](CO)C(=O)N[C@@H](CCCNC(=N)N)C(=O)Nc1ccc2c(CC(N)=O)cc(=O)oc2c1
kcat/Km (MALT1 (Homo sapiens, UniProt Q9UDY8); substrate, fluorogenic peptide hydrolysis; pH 7.5, catalytic domain 285 or 294 nM): 3500 M⁻¹ s⁻¹

COc1ccc(Nc2c(C(=O)O)ccnc2C(=O)O)cc1
remaining activity (KDM4E (Homo sapiens, UniProt B2RXH2); inhibitor, FDH-coupled spectrophotometry, measured: formaldehyde; 200 µM): 6%

Cc1nc2ccc(S(=O)(=O)n3nc(NCCc4ccc(Cl)cc4)nc3N)cc2s1
probe labelling (Lysophospholipase-like protein 1; activator, gel-based ABPP FP-rhodamine; baseline: DMSO): 1.1 fold

CC(=O)Nc1ccc(-c2nc(C)c(CSc3ccc(OCC(=O)O)c(C)c3)s2)cc1
IC50 (Vitamin D3 receptor (VDR, Homo sapiens, UniProt P11473); reporter gene, antagonist; HEK-293T; up to 100 µM, CYP24A1 promoter luciferase, with: 1,25(OH)2D3 10 nM): inactive

N#Cc1ccc2[nH]cc(/C=C/c3cccc([N+](=O)[O-])c3)c2c1
inhibition (APP Aβ1-40; Aβ40 aggregation, thioflavin T fluorescence; 25 µM): 5%

Nc1nc(SCc2ccc(Cl)cc2)nn1S(=O)(=O)c1cccc2nonc12
FP-rhodamine labelling (LYPLAL1 (Homo sapiens, UniProt Q5VWZ2); activator, gel-based ABPP; purified protein; baseline: DMSO): 3 fold

COc1ccc(NC(=O)CN2CCCN(S(=O)(=O)c3ccc(C)c(C)c3)CC2)c(OC)c1
maximal response (GRM4; calcium mobilization, positive allosteric modulator; CHO cells with Gqi5; with: glutamate; baseline: PHCCC maximal response): 42.4 ± 5%

OC(CN1CCNCC1)Cn1c2ccccc2c2cc(Cl)ccc21 (stereo not shown)
chemical shift perturbation (BAX (Homo sapiens, UniProt Q07812); ligand-observed 1H NMR; 100 µM, 10 µM BAX; baseline: compound without BAX): 2.9 Hz

COc1ccc(NC(=O)CN2CCCN(S(=O)(=O)c3cc(C)ccc3C)CC2)c(OC)c1
maximal response (GRM4; calcium mobilization, positive allosteric modulator; CHO cells with Gqi5; with: glutamate; baseline: PHCCC maximal response): 32.5%

COc1ccc2[nH]cc(/C=C/c3c[nH]c4ccccc34)c2c1
inhibition (APP Aβ1-40; Aβ40 aggregation, thioflavin T fluorescence; 25 µM): 39%

CN(Cc1cccnc1)c1ccc2c(c1)c(=O)c(C(N)=O)cn2-c1ccc(F)cc1
response (Grm2; calcium mobilization, negative allosteric modulator; 30 µM, with: glutamate 100 µM; baseline: glutamate maximum): 2.39 ± 0.13%

C[C@H](NC(=O)[C@H](CCCCN)NC(=O)CNC(=O)CNC(=O)[C@@H](NC(=O)[C@@H](NC(=O)[C@H](Cc1c[nH]c2ccccc12)NC(=O)c1ccccc1N)[C@@H](C)O)[C@@H](C)O)C(=O)N[C@@H](CCCCNc1ccc([N+](=O)[O-])cc1[N+](=O)[O-])C(N)=O
kcat (MIPEP; substrate, FRET peptide hydrolysis): 0.0033 s⁻¹

Cc1cccc(-c2noc(-c3cn(CC(=O)NCc4ccc5c(c4)OCO5)c4nc(C)ccc4c3=O)n2)c1
enthalpy change (Catenin beta-1, residues 141-305 (CTNNB1, Homo sapiens, UniProt P35222); isothermal titration calorimetry; concentration not given, 25 °C): -2.1 kcal/mol

O=C(Nc1ccccc1)C12CC1/C(=N\O)c1cc(F)ccc1O2 (stereo not shown)
response (GRM4; positive allosteric modulator, calcium mobilization; CHO expressing Gqi5; concentration not given, with: glutamate EC20; baseline: (±)-PHCCC): 139%

Cc1ccc(C(=O)Nc2ccc(Br)cc2C(=O)O)cc1S(=O)(=O)Nc1cccc(Cl)c1
ligand efficiency (RPA1 N-terminal domain; binding, fluorescence polarisation competition; with: FITC-ATRIP probe): 0.22

Excerpt of the above:
O=C(OC(C(F)(F)F)C(F)(F)F)N1CC[C@H](OC(c2ccc(F)cc2)c2ccc(F)cc2)C1
activity (FAAH; enzyme activity, inhibitor, fluorescence AAMCA substrate; 1 µM): inactive

CC(=O)N[C@@H](CC(C)C)C(=O)N[C@@H](CCCNC(=N)N)C(=O)N[C@@H](CO)C(=O)N[C@@H](CCCNC(=N)N)C(=O)Nc1ccc2c(CC(N)=O)cc(=O)oc2c1
kcat/Km (MALT1 (Homo sapiens, UniProt Q9UDY8); substrate, fluorogenic peptide hydrolysis; pH 7.5, catalytic domain 285 or 294 nM): 3500 M⁻¹ s⁻¹

COc1ccc(Nc2c(C(=O)O)ccnc2C(=O)O)cc1
remaining activity (KDM4E (Homo sapiens, UniProt B2RXH2); inhibitor, FDH-coupled spectrophotometry, measured: formaldehyde; 200 µM): 6%

Cc1nc2ccc(S(=O)(=O)n3nc(NCCc4ccc(Cl)cc4)nc3N)cc2s1
probe labelling (Lysophospholipase-like protein 1; activator, gel-based ABPP FP-rhodamine; baseline: DMSO): 1.1 fold
